Published values collected from several papers.
Each line is one published result; not all experiments were run side by side.
Target: Serine/threonine-protein kinase NIM1 (NIM1K, Homo sapiens, UniProt Q8IY84)

Nc1ncc2c(n1)-c1c([nH]c3ccc(C4=CCOCC4)cc13)CCC2 gave a remaining binding of 91% (binding, competition with immobilised ligand; 1 µM).
CN1CCN(Cc2ccc(-c3ccc(CO[C@H]4CCC[C@@H]4NC(=O)c4cc(-c5cnn(C)c5)cnc4N)cc3)cc2)CC1 has an inhibition of 0% (enzyme activity, inhibitor; 0.1 µM).
Cc1cnc2nc1Nc1cccc(c1)COC/C=C/COCc1cc(ccc1OCCN1CCOCC1)N2 gave a remaining binding of 97% (binding, competition with immobilised ligand; 0.1 µM).
For O=C(Cc1ccc(OCc2ccccc2)cc1)NC1(C(=O)O)CCN(C(=O)c2ccc(-c3cccc(Cl)c3)cc2)CC1, “activity vs control” read 140% (enzyme activity, inhibitor; 10 µM).
Cc1ccc(-c2c(/C=C(\C#N)C(=O)NC(C)C)n(CCCO)c3ncnc(N)c23)cc1 has a remaining binding of 100% (cell-free assay, competition with immobilised ligand; 1 µM).
With C=CC(=O)N1CCCC(n2c(=O)c3ncccc3n(Cc3ccc(Oc4ccccc4)cc3)c2=O)C1 (stereo not shown) the remaining binding was 73% (cell-free assay, competition with immobilised ligand; 1 µM).
CNC1C[S+]2CC[S+]3CC[S+](C1)[Ru-4]321([N]=C=S)[n]2c3ccc(OC)cc3c3c4c(c5cc(F)c[n+]1c5c32)C(=O)NC4=O (stereo not shown) has a remaining binding of 90% (KinomeScan; 0.1 µM; baseline: untreated).
The remaining activity of Nc1ncc(-c2cc(-c3cnn(CC(F)(F)F)c3)ncc2F)nc1C(=O)NC1CNCC(F)C1 (stereo not shown) is reported as 102% (enzyme activity; 1 µM; baseline: DMSO control).
COc1cc(Nc2nccc(-c3cnn4nc(OC)ccc34)n2)cc(C(F)(F)F)c1 has a remaining binding of 100% (binding, competition with immobilised ligand; 1 µM).
For CN1CC[C@@H](COc2cnc(C#N)cc2-c2ccn3nc(NC(=O)C4CC4)cc3c2)C1, the inhibition was 8% (enzyme activity, inhibitor; 1 µM).
With CC(C)=CC1OC(C)(C)C2C=C3C(=O)C(Cl)=CC(O)C3C3C(O)C4OC4C(=O)C132 (stereo not shown) the remaining binding was 66% (cell-free assay, competition with immobilised ligand; 10 µM).
CNC(=O)C[C@H](Cc1ccc(C#N)cc1)NC(=O)c1cc(-c2ccc(CN[C@H](C)c3ccc(C)cc3)o2)ccc1Cl — result for “activity vs control”: 97% (enzyme activity, inhibitor; 1 µM).
COc1c(Cl)cccc1Nc1c(-c2ccncc2C#C[C@@]2(C)CCCN2C(=O)/C=C/CN(C)C)[nH]c2c1C(=O)NCC2 gave a remaining binding of 48% (binding, competition with immobilised ligand; 3 µM).
With CCN1CCN(Cc2ccc(C(=O)Nc3ccc(C)c(NCc4cnc5[nH]ccc5c4OC)c3)cc2C(F)(F)F)CC1 the remaining binding was 100% (binding, competition with immobilised ligand; 1 µM).
The inhibition of C=CC(=O)N1Cc2nc(-c3cc(-c4cc(Cl)cnc4Cl)c(F)cc3F)n(-c3ccncn3)c2C1 is reported as 2.1% (cell-free assay, inhibitor; 1 µM).
CCn1cc(C(=O)O)c(=O)c2c(N)c(F)c(NC3CCCCC3)cc21 gave an inhibition of -13.9% (kinase activity; 0.1 µM, added: ATP at Km).
With C=CC(=O)N1CCc2ccc(-n3c(=O)ccc4cnc5ccc(-c6cnn(C)c6)cc5c43)cc21 the remaining binding was 100% (KINOMEscan; 1 µM; baseline: DMSO control).
With COc1cc(Nc2nc(C)cc(-c3cnn4nc(OC)ccc34)n2)cc(C(F)(F)F)c1 the remaining binding was 94% (KINOMEscan binding; 1000 nM; baseline: control).
CNC(=O)C1CCN(c2cc(C)c(F)cc2NC(=O)c2ccc(-c3cc(O)ccc3C)c(C)c2)CC1 has a remaining binding of 89% (binding, competition with immobilised ligand; 1 µM).

Some of these lines once more:
Cc1cnc2nc1Nc1cccc(c1)COC/C=C/COCc1cc(ccc1OCCN1CCOCC1)N2 gave a remaining binding of 97% (binding, competition with immobilised ligand; 0.1 µM).
For O=C(Cc1ccc(OCc2ccccc2)cc1)NC1(C(=O)O)CCN(C(=O)c2ccc(-c3cccc(Cl)c3)cc2)CC1, “activity vs control” read 140% (enzyme activity, inhibitor; 10 µM).
